Results of several laboratories.
A part holds a random share of what one study measured.

Series 1
Target: Prothrombin, mature alpha-thrombin (F2, Homo sapiens, UniProt P00734)
Method: aptamer microarray, sandwich
Molecule type: DNA with 2'F-ANA
Matrix: in vitro
Tested at: 200 nM
Notes: whole 15-mer aptamer, many near background
Together with: Cy3 exosite-II aptamer, 400 nM
Reading: higher = stronger binding
Sequence: GGTTGGTGTGGTTGG
| Modification | mean fluorescence intensity |
| --- | --- |
| 2'F-ANA at 1 3 4 5 6 7 9 11 14 | 46.6 a.u. |
| 2'F-ANA at 1 4 7 13 14 15 | 53.5 a.u. |
| 2'F-ANA at 2 4 5 6 9 13 14 15 | 50.3 a.u. |
| 2'F-ANA at 1 2 6 8 9 12 | 332 a.u. |
| 2'F-ANA at 4 6 14 | 119 a.u. |
| 2'F-ANA at 1 3 4 5 6 8 10 12 13 14 15 | 128 a.u. |
| 2'F-ANA at 3 4 8 9 10 12 14 | 208 a.u. |

Series 2
Target: Interferon regulatory factor 7, full length, phosphomimetic (IRF7, Homo sapiens, UniProt Q92985, residues 1-503, S471D/S472D/S475D/S476D/S477D/S483D/S484D/S487D)
Method: protein-binding microarray
Molecule type: double-stranded DNA, one strand shown
Matrix: in vitro
Tested at: 2200 nM top
Notes: 60-bp whole probe
Together with: salmon DNA 0.4 mg/ml
Reference: random background probes
Reading: higher = stronger binding
Constant ends, left off below: GCCTAGCAC … GTCTTGATTCGCTTGACGCTGCTG
Target sequence (chain): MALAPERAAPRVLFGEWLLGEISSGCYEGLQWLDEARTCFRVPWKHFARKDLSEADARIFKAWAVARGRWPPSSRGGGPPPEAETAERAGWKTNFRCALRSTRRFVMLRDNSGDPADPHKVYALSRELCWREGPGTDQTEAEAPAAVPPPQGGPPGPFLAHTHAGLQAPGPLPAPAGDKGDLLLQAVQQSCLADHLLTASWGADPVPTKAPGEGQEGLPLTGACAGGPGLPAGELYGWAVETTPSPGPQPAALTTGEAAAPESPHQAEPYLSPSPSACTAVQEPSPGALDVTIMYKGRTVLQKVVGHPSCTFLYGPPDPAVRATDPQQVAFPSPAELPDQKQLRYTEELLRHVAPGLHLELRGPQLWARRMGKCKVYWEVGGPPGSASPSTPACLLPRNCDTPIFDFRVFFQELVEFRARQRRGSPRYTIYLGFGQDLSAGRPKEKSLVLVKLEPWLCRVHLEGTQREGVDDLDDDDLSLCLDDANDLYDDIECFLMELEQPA
| Sequence | fitted relative affinity [z-score] |
| --- | --- |
| GACGAACTGGGGTTTCTAGACGTGCTA | 0.407 |
| TTAGGTCTCGGACTCGGTTAGTGCTAG | 0.427 |
| TCAATTTTCTGAATGCTACTGTGCTAG | 2.71 |
| GACCGTATCGGTATCGGGACGTGCTAG | 0.509 |
| GGCGGACTGGGTCTCGGGACGTGCTAG | -1.66 |
| TTAGGTTTCCTTATCCCTTAGTGCTAG | 2.5 |
| GACGGTTTCGGACGGGGGACGTGCTAG | 2.64 |
| TTAGGACTGGAGACTGGGTTAGTGCTA | -0.865 |
| TTAGGTTTCCTTCTCCTATAGTGCTAG | 2.76 |
| TCAAATTCTCATTTCCAACTGTGCTAG | 0.962 |
| TCATTTCTCTTTCACTAACTGTGCTAG | 4.07 |

Series 3
Target: Histone acetyltransferase KAT6A, both winged helices, GST fusion (KAT6A, Homo sapiens, UniProt Q92794, residues 1-181)
Method: protein binding microarray
Molecule type: double-stranded DNA, one strand shown
Matrix: in vitro
Tested at: not given
Notes: 8-mer, flanks averaged, mean of 2 arrays, mostly near background
Reference: not given
Reading: higher = stronger binding
Target sequence (chain): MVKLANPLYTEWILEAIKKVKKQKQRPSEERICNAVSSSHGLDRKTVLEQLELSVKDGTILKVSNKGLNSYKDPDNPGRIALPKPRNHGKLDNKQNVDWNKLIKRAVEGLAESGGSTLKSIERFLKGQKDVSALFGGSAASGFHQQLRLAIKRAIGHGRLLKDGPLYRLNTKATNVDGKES
| Sequence | E-score |
| --- | --- |
| ACCGAAAT | 0.0396 |
| CCAGGAGC | -0.0435 |
| CATTTGGG | -0.0579 |
| CAGGATTA | -0.094 |
| AAGTAGTC | -0.0573 |
| AGGAACAA | -0.0961 |
| ACTGGCTA | -0.163 |
| ATAATTAG | -0.0692 |
| AATTTGTC | -0.0836 |

Mixed results
| Substance | target | test | test system | conditions | how to read | quantity | result |
| --- | --- | --- | --- | --- | --- | --- | --- |
| PhoQ, residues 284 288 289 292 302 303 QWQEDG | PhoP, residues 12 14 15 18 19 NMSSL (Escherichia coli, UniProt P23836) | Sort-seq, refers to: YFP reporter | E. coli | PhoQ-PhoP variant library, together with: 10 µM Mg2+ | reference: high Mg2+ state, higher = stronger signaling | fold induction | 7.58 |

Some of these lines once more (series 3):
| Sequence | E-score |
| --- | --- |
| CCAGGAGC | -0.0435 |
| CATTTGGG | -0.0579 |
| CAGGATTA | -0.094 |
| AAGTAGTC | -0.0573 |
